Measurements pooled from the literature.
“And” joins repeats or separate records; there may be more than shown. ± marks the error that the study gave.

SMILES	target or system	assay	system	setting	how to read	quantity	value
Cc1cc(/C=C2\Oc3cc(OCC4CC4)ccc3C2=O)cc(C)c1OC(C)(C)C(=O)O	–	–	db/db mice, MCD diet-fed, WAT and BAT	oral, 30 mg/kg, 45 days daily	relative to: model group	adipocyte size	decreased
CCc1oc2ccccc2c1C(=O)c1cc(Br)c(O)c(Br)c1	–	–	male mouse, acute hyperuricaemia model, serum	oral, 2 mg/kg, 4 h	–	serum uric acid	283 ± 154 µM
[Cl-].[Cl-].[Pt+2].[Ru+2].c1ccc(-c2nc3ccccc3nc2-c2ccccn2)nc1.c1cnc2c(c1)ccc1cccnc12.c1cnc2c(c1)ccc1cccnc12	–	chloride substitution, UV-vis kinetics	aqueous buffer	pH 7.2, 35 °C, second substitution step, together with: L-methionine	–	activation free energy	23.7 ± 1.43 kcal/mol
O=C(O)CSc1nnc(Br)n1-c1ccc(C2CC2)c2ccccc12	–	–	mouse, chronic hyperuricaemia model, serum	dose not given	–	serum uric acid	620 µM and 558 µM and 603 µM and 310 µM and 591 µM and 260 µM
CN[C@@H](C)C(=O)N[C@H]1CN(S(=O)(=O)c2cccc(S(=O)(=O)N3CC[C@H]4CC[C@@H](C(=O)NC(c5ccccc5)c5ccccc5)N4C(=O)[C@@H](NC(=O)[C@H](C)NC)C3)c2)CC[C@H]2CC[C@@H](C(=O)NC(c3ccccc3)c3ccccc3)N2C1=O	–	RECIST 1.1	advanced pancreatic cancer patients	dose not given, efficacy-evaluable, together with: AG	–	disease control rate	60%
O=C(O)CCc1nccc2c3ccccc3n(Cc3ccc(C4CC4)c4ccccc34)c12	–	–	mouse, acute hyperuricaemia model, serum	oral, 2 mg/kg, individual animal data	–	serum uric acid	330 µM and 599 µM and 437 µM
N=C(N)NCCC[C@H](NC(=O)[C@H](CCCNC(=N)N)NC(=O)[C@H](CCCCN)NC(=O)[C@H](CCC(N)=O)NC(=O)[C@H](CCCCN)NC(=O)[C@H](Cc1ccc(O)cc1)NC(=O)[C@@H](N)CCCCN)C(=O)N[C@@H](CO)C(=O)N[C@@H](Cc1ccc(O)cc1)C(=O)N[C@@H](CCCCN)C(=O)O	–	–	dentin hypersensitivity patients	5 µg/tooth, day 36 post-study visit, two teeth per subject	direction not given	VAS score	55.7 ± 33.4
O=C(O)CNC(=O)Cc1ccccc1	–	–	ventricular cardiomyocytes, C57BL/6 mouse	dose not given, 0.776 s	–	sarcomere length	1.72 µm
C[C@H](NC(=O)c1c(C(F)F)nn(C)c1Oc1cccc(C(F)(F)F)c1)c1ccc(C(=O)O)cc1	–	irRECIST	human, advanced tumours	500 mg	best overall response	complete response	0%
N#Cc1ccn2c(-c3ccncc3)c(-c3ccc(F)cc3)nc2c1	–	kinase binding, competitor, MIB/MS competition, measured: YPK1	Candida albicans cell lysate	10 µM	relative to: DMSO	log2 fold change	-0.0357
CCCCCCCCCCCCCCCc1cccc(O)c1C(=O)O	OCI-Ly1	–	–	0.5 µM, 120 h	–	viability	152%
[Cl-].[Cl-].[Pt+2].[Ru+2].c1ccc(-c2nc3cc4ccccc4cc3nc2-c2ccccn2)nc1.c1cnc2c(c1)ccc1cccnc12.c1cnc2c(c1)ccc1cccnc12	–	chloride substitution, UV-vis kinetics	aqueous buffer	pH 7.2, 35 °C, second substitution step, together with: L-methionine	–	activation free energy	18.9 ± 0.956 kcal/mol
CC(C)n1c(C2CCNCC2)nc2c([N+](=O)[O-])c(Br)c(Br)cc21	–	–	patients with AML, bone marrow	all dose levels	–	minimum blast reduction	-4%
C[C@@H](NC(=O)N1C(=O)[C@H](Cc2ccnc(N)c2)[C@H]1C(=O)O)C1CCCCC1	–	–	human	iv infusion, 0.3 mg/kg/h, 24 h, unit not given	relative to: baseline	ACT Emax	1.09
N#CCNC(=O)c1ccc(-c2ccnc(Nc3ccc(N4CCOCC4)cc3)n2)cc1	–	–	patients with myelofibrosis	dose not given, 24 weeks, phase III trials	–	rate of TSS reduction ≥50%	28.6%
N#CCC1CCN(c2nc(Nc3ccc(N4CCC(O)CC4)cc3)c3c(=O)[nH]ncc3n2)CC1	–	Olink multiplex	human, serum	80 mg, day 15, unit not given	relative to: baseline	osteopontin level change	-1.26
C[C@@H](O)CCOC(=O)C[C@@H](C)O	–	measured: C18:1-OH/C16:1-DC acylcarnitine	human, plasma	60 min, log2-transformed values	–	metabolite level	-7.47 ± 0.54 µmol/L
CC(=O)NCC(=O)NCC(=O)N[C@H](C(=O)N[C@@H](Cc1ccc(O)cc1)C(=O)N[C@@H](CO)C(=O)N[C@H]1CSSC[C@@H](C(=O)N[C@@H](CCCNC(=N)N)C(=O)N2CCC[C@H]2C(=O)N[C@@H](CCC(N)=O)C(=O)N[C@@H](CCCNC(=N)N)C(=O)NCC(=O)NCCC(=O)N[C@@H](CCCCNC(=O)CN(CC(=O)NCCCC[C@H](NC(=O)CCNC(=O)CNC(=O)[C@H](CCCNC(=N)N)NC(=O)[C@H](CCC(N)=O)NC(=O)[C@@H]2CCCN2C(=O)[C@H](CCCNC(=N)N)NC(=O)[C@@H]2CSSC[C@H](NC(=O)[C@H](CO)NC(=O)[C@H](Cc3ccc(O)cc3)NC(=O)[C@@H](NC(=O)CNC(=O)CNC(C)=O)[C@@H](C)O)C(=O)N[C@@H](Cc3c[nH]cn3)C(=O)N[C@@H](Cc3ccccc3)C(=O)NCC(=O)N[C@@H](C)C(=O)N[C@@H](CC(C)C)C(=O)N[C@@H]([C@@H](C)O)C(=O)N[C@@H](Cc3c[nH]c4ccccc34)C(=O)N[C@@H](C(C)C)C(=O)N2)C(N)=O)C(=O)CCN)C(N)=O)NC(=O)[C@H](C(C)C)NC(=O)[C@H](Cc2c[nH]c3ccccc23)NC(=O)[C@H]([C@@H](C)O)NC(=O)[C@H](CC(C)C)NC(=O)[C@H](C)NC(=O)CNC(=O)[C@H](Cc2ccccc2)NC(=O)[C@H](Cc2c[nH]cn2)NC1=O)[C@@H](C)O	–	–	healthy BALB/c mice	subcutaneous, 0.08 mg/kg, 6 d, single dose	–	haemoglobin	166 g/L
CC(C)NCC(O)c1ccc(O)c(O)c1 (stereo not drawn)	–	–	ventricular cardiomyocytes, C57BL/6 mouse	dose not given, 0.456 s	–	sarcomere length	1.68 µm
N#Cc1ccc2c(-c3ccncc3)c(-c3ccc(F)cc3)nn2c1	–	kinase binding, competitor, MIB/MS competition, measured: MCK1	Candida albicans cell lysate	100 nM	relative to: DMSO	log2 fold change	-0.54
COc1cc2cc(-c3ccc(CC(=O)Nc4cc(C(C)(C)C(F)(F)F)no4)cn3)cnc2cc1OC	–	RECIST v1.1	RET-altered advanced solid tumour patients	oral, 150 mg once daily, phase I	–	objective response rate	25%
Cc1cc(C(C)(C)C)c(O)c(C(C)(C)C)c1	–	Fe3+ reduction, ferricyanide reduction	–	30 µg/mL	–	absorbance	0.634 ± 0.049
N#Cc1ccc2c(c1)[C@H]1CCCN(C(=O)c3ccc4[nH]cnc4c3)[C@H]1C2	–	–	human clinical trial	oral, 240 mg once daily, 28 d	–	HbA1c change from baseline	0%
Cc1ccc([C@@H]2O[C@H](CO)[C@@H](O)[C@H](O)[C@H]2O)cc1Cc1ccc(-c2ccc(F)cc2)s1	–	–	Japanese type 2 diabetes patients	100 mg, day 17	relative to: day 1	change in fasting serum insulin	-1.1 µU/mL

SMILES	target or system	assay	system	setting	how to read	quantity	value
COc1ccc(-c2cncc(N[C@@H](C)c3cccc(NC(=O)c4cncc(C)c4)c3)n2)cc1OC	–	measured: rno-miR-490-3p	rat SU5416/hypoxia model, lung	dose not given	relative to: SU5416/hypoxia vehicle	fold change	2.43
COc1cc(F)c([C@@H]2CNC(=O)[C@H]2NC(=O)Nc2ccccc2)c(F)c1	–	–	rat, myocardial infarction	1 mg/kg, 1008 h, 6 weeks after occlusion	–	ejection fraction	44 ± 13%
NCC(=O)Nc1cncc(-c2nn3c(=O)cc(N4CCNCC4)nc3s2)c1	–	ADP-induced platelet aggregation, light transmission aggregometry	human, stable CAD on aspirin, ex vivo platelets	subcutaneous, 0.05 mg/kg, 240 min post-dose, median value, together with: ADP 20 µM	–	inhibition	10.6%
COc1nnc2ccc(N3CCC(c4ccc(OCCN5CCN(C)C(=O)[C@H]5C)cc4)CC3)nn12	–	–	cancer patients, plasma	2 to 40 mg	relative to: predose	plasma MMP-3 level	decreased
C=CCn1c(=O)c2cnc(Nc3ccc(N4CCN(C)CC4)cc3)nc2n1-c1ccc2c(n1)[C@@](O)(CC)CC2	–	–	NCI-H1755, NOD/SCID mice, xenograft	oral, 80 mg/kg once daily, day 28	relative to: vehicle	tumour volume difference	125 ± 8.3 mm3
NC(=O)c1cnc2[nH]ccc2c1N[C@@H]1[C@@H]2CC3C[C@H]1C[C@@](O)(C3)C2	–	CD8+ memory T cells, flow cytometry	Japanese humans, peripheral blood	60 mg single dose	relative to: baseline	percent change	0.62%
CC(C)C[C@H](NC(=O)[C@@H](Cc1c[nH]c2ccccc12)NC(=O)[C@H](Cc1ccc(O)cc1)NC(=O)[C@H](CO)NC(=O)[C@H](Cc1c[nH]c2ccccc12)NC(=O)[C@H](Cc1c[nH]cn1)NC(=O)[C@@H]1CCC(=O)N1)C(=O)N[C@@H](CCCNC(=N)N)C(=O)N1CCC[C@H]1C(=O)NCC(N)=O	–	–	Chinese children, central precocious puberty, serum	intramuscular, 22.5 mg day 1, month 6, month 3	–	basal LH level	0.36 IU/L
N#Cc1ccc2c(c1)[C@H]1CCCN(C(=O)c3ccc4[nH]cnc4c3)[C@H]1C2	–	–	human, urine	10 mg, 336 h, day 14 over day -1	relative to: placebo and baseline	total urinary corticosteroids	108 % change
CC(C)[C@H](NC(=O)[C@H](Cc1ccc(O)cc1)NC(=O)[C@H](Cc1ccc(O)cc1)NC(=O)[C@@H]1CCCN1C(=O)[C@H](CCC(=O)O)NC(=O)[C@H](CCC(=O)O)NC(=O)[C@H](Cc1c[nH]c2ccccc12)NC(=O)[C@@H]1CCCN1C(=O)[C@@H](NC(=O)[C@H](CCC(N)=O)NC(=O)c1ccc2c(c1)C(=O)OC21c2ccc(O)cc2Oc2cc(O)ccc21)C(C)C)C(=O)N[C@H](C(=O)N[C@@H](CCCCN)C(=O)N[C@@H](CCCCN)C(=O)N[C@@H](CO)C(=O)N[C@@H](CO)C(=O)NCC(=O)NCC(N)=O)C(C)C	–	nerve discrimination	head and neck surgery patients	500 mg	relative to: white light	surgeons rating slightly improved	21.4%
Cc1nc(-c2ccc(OCC(C)C)c(C#N)c2)sc1C(=O)O	–	–	mouse, acute hyperuricaemia model	1 mg/kg	–	serum uric acid	179 ± 2.5 µM
Cn1cc(Nc2nccc(-c3ccc4c(c3)CN(C3COC3)CC[C@H]4NC(=O)c3cn(C(C)(C)C)nn3)n2)cn1	–	measured: TREM1 signalling	mouse splenic B cells, mouse	30 mg/kg, IgD-activated B cells in vivo	relative to: vehicle, direction not given	pathway activation z-score	3.15
O=P(O)(O)C(Cl)(Cl)P(=O)(O)O	–	–	Mus musculus, sham-operated, hippocampal fissure	concentration not given, day 1	relative to: total area	Iba1-positive area	0.42% and 0.64% and 0.33%
O=C(NS(=O)(=O)c1ccc(C(F)(F)F)cc1)c1cc2ccccc2n1Cc1ccc(Br)c2ccccc12	–	–	male mouse, acute hyperuricaemia model, serum	oral, 2 mg/kg, 4 h	–	serum uric acid	246 ± 110 µM
CCN1CCN(Cc2ccc(Nc3ncc(F)c(-c4cc(F)c5nc6n(c5c4)[C@H](C)CCC6)n3)nc2)CC1	–	–	human advanced solid tumours	50 mg, phase Ia monotherapy RECIST 1.1	–	complete response	0%
CC1(C)OB(c2ccccc2/C=N/NC(=O)c2ccncc2)OC1(C)C	–	LC-UV	ADS buffer	100 µM, 37 °C, together with: H2O2 200 µM	–	activation rate constant	0.0671 ± 0.0051 h⁻¹
Cc1noc(C)c1-c1cc(C(O)(c2ccccn2)c2ccccn2)c2nc(C3CC3)[nH]c2c1	–	measured: CCR2 expression	human, peripheral blood	2 mg, day 1, 1604 study	–	maximum inhibition	14%
CCCc1cc(C)[nH]c(=O)c1CNC(=O)c1cc(-c2ccc(N3CCN(C(C)C)CC3)nc2)cc2c1cnn2C(C)C	OCI-Ly1	–	–	0.1 µM, 120 h	–	viability	120%
COc1ccc([C@@H](O)c2cc(-c3ncnc4cc(N5CCOCC5)ccc34)c(F)cc2Cl)nn1	–	RECIST version 1.1	patients, advanced solid tumours	300 mg twice daily, together with: avelumab	relative to: patients	objective response rate	0%
Cc1cc(C)c(CNC(=O)c2cc(Cl)c3c(c2C)O[C@@](C)([C@H]2CC[C@H](N(C)C)CC2)O3)c(=O)[nH]1	–	–	relapsed/refractory ATLL patients	dose not given, modified ATLL criteria 2009	–	disease control rate (CR+CRu+PR+SD)	71%
C[C@H]1C[C@H]2CSC(N)=N[C@@]2(c2nc(NC(=O)c3ccc(OC(F)F)cn3)cs2)CO1	–	–	healthy adults, fed, plasma	oral, 200 mg single dose, 24 h	relative to: baseline, placebo-adjusted	plasma Aβ1-40 change	-83.5%
C=Cc1ccccc1	–	iEDDA reaction	methanol/water	21 °C, together with: tetrazine	–	activation free energy ΔG‡	19.8 kcal/mol
CN(C)C(=N)N=C(N)N	–	barrier function (TEER)	human ileal GI microtissue EpiIntestinal-FT	–	–	IC15	> 100 µM
O=S(=O)(NCCNC/C=C/c1ccc(Br)cc1)c1cccc2cnccc12	–	embryonic development	mouse zygotes	20 µM, 120 h post-hCG	–	two-cell embryos	35.3% and 15%
C[C@H](Oc1ccc(Br)cc1-c1ccon1)C(=O)O	–	muscle velocity recovery cycles	human, tibialis anterior muscle	1200 mg single dose, 3.5 h	relative to: placebo	MVRC latency difference	0.366 ms

Some of these lines once more:
SMILES	target or system	assay	system	setting	how to read	quantity	value
CC(C)n1c(C2CCNCC2)nc2c([N+](=O)[O-])c(Br)c(Br)cc21	–	–	patients with AML, bone marrow	all dose levels	–	minimum blast reduction	-4%
N#CCNC(=O)c1ccc(-c2ccnc(Nc3ccc(N4CCOCC4)cc3)n2)cc1	–	–	patients with myelofibrosis	dose not given, 24 weeks, phase III trials	–	rate of TSS reduction ≥50%	28.6%
C[C@@H](O)CCOC(=O)C[C@@H](C)O	–	measured: C18:1-OH/C16:1-DC acylcarnitine	human, plasma	60 min, log2-transformed values	–	metabolite level	-7.47 ± 0.54 µmol/L
